Assay results pooled from the literature.
ABL1 Q252H phosphorylated: Tyrosine-protein kinase ABL1, phosphorylated (ABL1, Homo sapiens, UniProt P00519, Q252H)

For `CCN1CCN(Cc2ccc(C(=O)Nc3ccc(C)c(NCc4cnc5[nH]ccc5c4OC)c3)cc2C(F)(F)F)CC1`, the remaining binding was 2.8% (Tyrosine-protein kinase ABL1, non-phosphorylated (ABL1, Homo sapiens, UniProt P00519); binding, competition with immobilised ligand; 1 µM).
With `Cc1cnc2nc1Nc1cccc(c1)COC/C=C/COCc1cc(ccc1OCCN1CCOCC1)N2` the remaining binding was 50% (ABL1 (Homo sapiens, UniProt P00519, Q252H); binding; 0.1 µM).
For `CNC(=O)C1CCN(c2cc(C)c(F)cc2NC(=O)c2ccc(-c3cc(O)ccc3C)c(C)c2)CC1`, the remaining binding was 30% (ABL1 Q252H phosphorylated; binding, competition with immobilised ligand; 1 µM).
The remaining binding of `C=CC(=O)N1CCCC(n2c(=O)c3ncccc3n(Cc3ccc(Oc4ccccc4)cc3)c2=O)C1` (centres unmarked) is reported as 74% (Tyrosine-protein kinase ABL1, non-phosphorylated (ABL1, Homo sapiens, UniProt P00519, F317L); binding, competition with immobilised ligand; 1 µM).
With `Nc1ncc2c(n1)-c1c([nH]c3ccc(C4=CCOCC4)cc13)CCC2` the remaining binding was 100% (Tyrosine-protein kinase ABL1, phosphorylated (ABL1, Homo sapiens, UniProt P00519, T315I); binding, competition with immobilised ligand; 1 µM).
For `C=CC(=O)N1CCc2ccc(-n3c(=O)ccc4cnc5ccc(-c6cnn(C)c6)cc5c43)cc21`, the remaining binding was 100% (Tyrosine-protein kinase ABL1, phosphorylated (ABL1, Homo sapiens, UniProt P00519, Y253F); KINOMEscan, measured: (Y253F)-phosphorylated; 1 µM; relative to: control).
`CC(C)=CC1OC(C)(C)C2C=C3C(=O)C(Cl)=CC(O)C3C3C(O)C4OC4C(=O)C132` (centres unmarked) gave a remaining binding of 92% (ABL1 Q252H phosphorylated; cell-free assay, competition with immobilised ligand; 10 µM).
`COc1cc(Nc2nccc(-c3cnn4nc(OC)ccc34)n2)cc(C(F)(F)F)c1` gave a remaining binding of 95% (Tyrosine-protein kinase ABL1, phosphorylated (ABL1, Homo sapiens, UniProt P00519); binding, competition with immobilised ligand; 1 µM).

Excerpt of the above:
The remaining binding of `C=CC(=O)N1CCCC(n2c(=O)c3ncccc3n(Cc3ccc(Oc4ccccc4)cc3)c2=O)C1` (centres unmarked) is reported as 74% (Tyrosine-protein kinase ABL1, non-phosphorylated (ABL1, Homo sapiens, UniProt P00519, F317L); binding, competition with immobilised ligand; 1 µM).
